Assay results collected from several papers.
Each numbered part is a random draw from the data of one study; scales do not carry over between parts.

Set 1 — method: protein-binding microarray; molecule type: double-stranded DNA, one strand shown; matrix: in vitro; concentration: not given; direction: higher = stronger binding
Target: Hepatocyte nuclear factor 3-beta, forkhead domain (FOXA2, Homo sapiens, UniProt Q9Y261, residues 142-269)
Notes: k-mer, scored over probes, only values ≥0.25
Residues (chain): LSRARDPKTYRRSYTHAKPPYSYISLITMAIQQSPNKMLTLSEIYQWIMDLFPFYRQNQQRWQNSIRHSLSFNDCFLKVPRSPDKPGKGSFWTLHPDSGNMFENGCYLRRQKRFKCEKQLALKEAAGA
The E-score of `ATATGTTA` is reported as 0.369.
With `AATTATGT` the E-score was 0.321.
With `ATATTATG` the E-score was 0.388.
`ACTAAATA` gave an E-score of 0.354.
The E-score of `AATATATG` is reported as 0.385.
`ATACTAGA` has an E-score of 0.333.
`ATAGTAAT` has an E-score of 0.268.
For `GTATGTAA`, the E-score was 0.38.
`ATGGATAA` has an E-score of 0.254.
`GCTATTTA` has an E-score of 0.256.
The E-score of `TATTAATA` is reported as 0.256.
`CTTATGTA` gave an E-score of 0.336.
The E-score of `AGTATTAT` is reported as 0.26.
The E-score of `TACAATCA` is reported as 0.317.
The E-score of `CTATTAAC` is reported as 0.293.
With `GCATACAC` the E-score was 0.26.
With `GTGTATCA` the E-score was 0.321.
The E-score of `ATATATTA` is reported as 0.325.
With `TACTAGTA` the E-score was 0.296.
The E-score of `ATAATTAG` is reported as 0.257.
`CAACACAA` has an E-score of 0.28.
The E-score of `CATTTATC` is reported as 0.301.
`CATTACAA` gave an E-score of 0.272.
For `GTGTACAA`, the E-score was 0.347.
`AACAACAC` gave an E-score of 0.346.

Set 2 — method: protein binding microarray; molecule type: double-stranded DNA, one strand shown; matrix: in vitro; concentration: not given; reference: not given; direction: higher = stronger binding
Target: Histone acetyltransferase KAT6A, winged helix 2, GST fusion (KAT6A, Homo sapiens, UniProt Q92794, residues 85-181)
Notes: 8-mer, flanks averaged, mean of 2 arrays, mostly near background
Target sequence (chain): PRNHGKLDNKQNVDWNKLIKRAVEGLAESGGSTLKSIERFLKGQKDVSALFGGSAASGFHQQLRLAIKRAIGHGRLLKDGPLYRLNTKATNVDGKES
The E-score of `CTATTAGC` is reported as 0.0536.
For `GTCATAAC`, the E-score was -0.206.
For `ACTTTTTA`, the E-score was -0.0146.
With `GTAAAGCA` the E-score was -0.000865.
`CGCTCAAG` has an E-score of 0.0301.
For `CAGATGAG`, the E-score was 0.00571.
`CCCTGAGA` gave an E-score of -0.135.
For `ACTAGATC`, the E-score was -0.145.
The E-score of `ACAGAGAG` is reported as -0.0373.
`ACGAATAC` has an E-score of 0.0463.
With `CGATTGAG` the E-score was -0.149.
With `CAAAACGG` the E-score was 0.101.
For `ATGACCAT`, the E-score was -0.0863.
`CTCTTGAC` has an E-score of -0.0965.
With `TCTAAACA` the E-score was -0.0572.
The E-score of `CCCGCGTC` is reported as 0.179.
The E-score of `CGGCCCTC` is reported as 0.0952.
With `ACCCGAGA` the E-score was 0.119.
`ATTCCGAG` has an E-score of 0.16.
For `CATACGGC`, the E-score was 0.0862.
The E-score of `GGGAATAC` is reported as -0.0375.
`AGGCTTGC` has an E-score of -0.107.
For `AATTCTCC`, the E-score was -0.0222.
The E-score of `AAGTTCGT` is reported as 0.0581.
For `ACTGTGGC`, the E-score was -0.108.

Set 3 — method: RNA Bind-n-Seq; molecule type: RNA; matrix: in vitro; concentration: 1 µM; notes: whole 134-nt RNA, ends assumed; with: 150 mM KCl; reference: input library; direction: higher = stronger binding
Target: Ras GTPase-activating protein-binding protein 1, C-terminal RGG region (G3BP1, Homo sapiens, UniProt Q13283)
UniProt Q13283, sequence (whole entry, looked up): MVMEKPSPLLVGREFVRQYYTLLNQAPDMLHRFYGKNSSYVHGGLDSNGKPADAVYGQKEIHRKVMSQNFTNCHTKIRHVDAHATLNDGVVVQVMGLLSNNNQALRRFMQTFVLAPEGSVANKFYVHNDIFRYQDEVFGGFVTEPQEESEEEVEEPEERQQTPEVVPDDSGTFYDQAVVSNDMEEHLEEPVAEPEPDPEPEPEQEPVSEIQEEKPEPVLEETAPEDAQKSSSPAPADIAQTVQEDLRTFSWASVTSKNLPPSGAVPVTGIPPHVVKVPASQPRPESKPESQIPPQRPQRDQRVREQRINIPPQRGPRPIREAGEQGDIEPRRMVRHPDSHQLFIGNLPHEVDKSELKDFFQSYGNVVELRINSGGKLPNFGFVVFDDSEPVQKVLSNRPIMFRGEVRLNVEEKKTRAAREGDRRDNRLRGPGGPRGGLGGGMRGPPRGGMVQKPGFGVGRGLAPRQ
Constant ends, left off below: GGGAGUUCUACAGUCCGACGAUC … UGGAAUUCUCGGGUGUCAAGG
With `GCAGGAAGUAAAAACAAAUGGAAAUGCUUCGGAUAGUGGCAGGGGUGGUGGUUGCUAAGGAAAGGGUGGGAUGGGAGUGGGUAAAGAGUU` the log2 enrichment was 1.86.
`CACAGACAACACGCACCCACACAGACACAGAGGGAAGGGGUUGGGAUGGGGACAGGGUGCACAGCAGGGCGGGGUAGGAAACCAGCCCCU` gave a log2 enrichment of -0.102.
With `UGGCCCUGGUGGCAUGCGGGGAGGAAGAGGUGGCCUCAUGGAUCGUGGUGGUCCCGGUGGAAUGUUCAGAGGUGGCCGUGGUGGAGACCG` the log2 enrichment was 2.96.
The log2 enrichment of `CCUGUGCUACACAUCGUAUGUACCGAAUCGGGGCCCCCCCGGCCCCCCCGGCCCCCCCGGGAAAGUAUUAUGUUACGCCGUUCGGAUCUG` is reported as -1.49.
`CUCAAGUCCUGUGCUACACAUCGUAUGUACCGAAUCGGAGGGGAGGGGAGGGGAAAGUAUUAUGUUACGCCGUUCGGAUCUGCACUUCCA` has a log2 enrichment of 1.28.
`AGUCCUGUGCUACACAUCGUAUGUACCGAAUCGGGUUUUUGGUUUUUGGGUUUUUGGAAAGUAUUAUGUUACGCCGUUCGGAUCUGCACU` gave a log2 enrichment of -1.28.
The log2 enrichment of `UAACUUUAGAGGAGGAUCUGAUGGAUAUGGCAGUGGACGUGGAUUUAGGGAUGGCUAUAAUGGGUAUGGAGGAGGACCUGGAGGUGGCAA` is reported as -0.889.
`CACAGACAACACGCACCCACACAGACACAGAGGGAAGGGGUUGGGAUGCGGACAGGGUGCACAGCAGGGCGGGGUAGGACCCCAGCCCCU` gave a log2 enrichment of 0.33.
`UAACUUUAGAGGAGGAUCUGAUGGAUAUUGCAGUGGACGUGGAUUUGGGGAUGGCUAUAAUGGGUAUGGAGGAGGACCUGGAGGUGGCAA` gave a log2 enrichment of -1.33.

Set 4 — method: RNA Bind-n-Seq; molecule type: RNA; matrix: in vitro; concentration: not given; reference: input RNA pool; direction: higher = stronger binding
Target: RING finger protein unkempt homolog, zinc fingers 1-6, GST-SBP tag (UNK, Homo sapiens, UniProt Q9C0B0, residues 30-357)
UniProt Q9C0B0, sequence (30-357, looked up): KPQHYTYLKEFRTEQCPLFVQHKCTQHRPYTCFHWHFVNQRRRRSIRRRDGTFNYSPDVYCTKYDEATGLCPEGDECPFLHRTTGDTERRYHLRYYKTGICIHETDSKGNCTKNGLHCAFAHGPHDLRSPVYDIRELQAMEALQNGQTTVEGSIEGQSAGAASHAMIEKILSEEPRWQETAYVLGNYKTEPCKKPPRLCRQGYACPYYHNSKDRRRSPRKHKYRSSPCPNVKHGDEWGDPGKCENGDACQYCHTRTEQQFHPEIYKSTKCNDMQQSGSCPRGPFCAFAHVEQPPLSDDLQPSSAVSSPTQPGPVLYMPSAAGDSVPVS
Notes: RNA with constant flanks, human and mouse sites, ends assumed
Constant ends, left off below: GGGAGUUCUACAGUCCGACGAUC … CAACAGAGGAUUGAGCAUCA
For `ACUUCCGGGAGGGGGCUUGGGUCCCUGGUGUGUGUGCUACGGGGUGCAGACUGUGUUUAAAAUAGCAGGAACGCCAUGUCCCGGGGUUCCAGCGCCGGUUUUGACCGUCACAUUACUAUC`, the bound/input enrichment was 0.112 ratio.
With `GAAAAACUUCAGCUCCUGCUUGAAGAACUAAGAGGAGAAUUAGUAGAGAAAACUAAAGAUUUAGAAGAAAUGAAACUGCAGAUAUUAACUCCACAAAAAUUGGAAUUGCUAAGAGCCCAA` the bound/input enrichment was 1 ratio.
With `GCUGGGGAGGAGGCAGCCCUGGGAGCCGAGCUCUGUGAGGAGACCCCUGUGAAUGACAACUCAUCCAUCGUGGUGCGCAUCGCGCCCGAGGAGCGGCAGAAAUACGAGGAGGAGAUCCGC` the bound/input enrichment was 0.287 ratio.
`AUUGAAGAAUUGCAAGAGGCUUUACGGAAGAAAGAAGAAGAAAUGAAGCAAAUGGAAGAACGCUAUAAAAAAUACUUAGAGAAGGCCAAGAGUGUUAUCCGUACAUUAGACCCUAAACAG` gave a bound/input enrichment of 0.951 ratio.
With `UGUGAUGAAUGUGGGAAGGCUUUCAGGAACAGCUCAGGCCUCAUAGUGCAUAAAAGGAUCCACACAGGAGAGAAACCUUACAAGUGUGAUGUCUGUGGCAAAGCAUUCAGCUAUAGCUCA` the bound/input enrichment was 0.147 ratio.
`GGAGGAAUGCCUUUCGCAAUAAUGUAUCCAUUCCCUGAUUGAGGGUGGGUGGGUGGACCCAGGCUCCCUUUGCACACAGAGCAGCUACUUCUAAGCCAUAUCGACUGUUUUGCAGAGGAU` gave a bound/input enrichment of 0.132 ratio.
`UGUUUGUGUGUGUGCGUGUGCGUGUGUGUGUGUGUUGGAAUUUCCUAUCUGCCUGGAUAUAUUAGCAGAGUUUGAAUGUAGUUUUGGCCUUUGGCCAUUAGACUUCUAUUAAAAUUCAUU` gave a bound/input enrichment of 1.59 ratio.
`CCAGUACCUCUCAAACGAUCUUUAGAUAGUUAACUUCUACUACUAUUUAACGUUAUCUUUUAGCACUCAUAGAACAAACCAAGAUAUGGAAGAAGACAUAUUCAAAAGGUGGGCUUGUCU` has a bound/input enrichment of 9.25 ratio.

Some of these lines once more (set 2):
With `ACCCGAGA` the E-score was 0.119.
`ATTCCGAG` has an E-score of 0.16.
For `CATACGGC`, the E-score was 0.0862.
